Experimental data from different studies.
Each numbered part is a random draw from the data of one study; scales do not carry over between parts.

Block 1 — method: RNA Bind-n-Seq; molecule type: RNA; medium: in vitro; tested at: not given; setting: RNA with constant flanks, ends assumed; reference: input RNA pool; direction: higher = stronger binding
Target: RING finger protein unkempt homolog, zinc fingers 1-6, GST-SBP tag (UNK, Homo sapiens, UniProt Q9C0B0, residues 30-357)
Sequence of UniProt Q9C0B0 (30-357, looked up): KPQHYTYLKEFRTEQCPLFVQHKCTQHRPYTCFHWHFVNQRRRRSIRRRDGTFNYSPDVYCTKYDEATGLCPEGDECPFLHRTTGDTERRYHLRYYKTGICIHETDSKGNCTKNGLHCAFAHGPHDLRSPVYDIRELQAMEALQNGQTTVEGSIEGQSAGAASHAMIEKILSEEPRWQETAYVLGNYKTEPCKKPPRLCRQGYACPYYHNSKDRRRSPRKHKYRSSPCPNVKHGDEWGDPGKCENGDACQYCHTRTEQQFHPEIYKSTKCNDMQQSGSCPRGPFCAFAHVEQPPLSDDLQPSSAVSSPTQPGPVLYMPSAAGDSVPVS
`GGGAGUUCUACAGUCCGACGAUCUUUGGACAGUGCUAUGAGUUUCUUACUCUUCACACAGUGAAAAAGUACUUUCUUCCAAUAACCGAAAUGGUUCCACAGUUUUUAGAAAACUUAACUGAUGAAGAGCUGAAGAAAGAAGCACAACAGAGGAUUGAGCAUCA` has a bound/input enrichment of 0.262 ratio.
`GGGAGUUCUACAGUCCGACGAUCGCUACUGCAGCUGCACCUAUGAUUGGUUAUCCAAUGCCAACAGGAUAUUCCCAAUAAGACUUCCGAAGUAUAUGUAAAUGUCUGUUUUUCAUAAUUGCUCUUUAUAUUGUGUGUUAUCUGCAACAGAGGAUUGAGCAUCA` has a bound/input enrichment of 0.333 ratio.
For `GGGAGUUCUACAGUCCGACGAUCGGCUUUAAGUCUGUUGGGAAGCCAUAAGCCCUUGAUUCUGCAGCAUGAAAACCUAGAAACCACCGUUGACUUUAUAAAAAGCACGCUACCCAACCUUGGCUUGGUACAGAUGGAAAAGACCAACAGAGGAUUGAGCAUCA`, the bound/input enrichment was 0.254 ratio.

Block 2 — method: universal PBM; molecule type: double-stranded DNA, one strand shown; medium: in vitro; tested at: 600 nM; direction: higher = stronger binding
Target: Sal-like protein 4, full length isoform A (SALL4, Homo sapiens, UniProt Q9UJQ4, residues 1-1053)
Sequence of UniProt Q9UJQ4 (whole entry, looked up): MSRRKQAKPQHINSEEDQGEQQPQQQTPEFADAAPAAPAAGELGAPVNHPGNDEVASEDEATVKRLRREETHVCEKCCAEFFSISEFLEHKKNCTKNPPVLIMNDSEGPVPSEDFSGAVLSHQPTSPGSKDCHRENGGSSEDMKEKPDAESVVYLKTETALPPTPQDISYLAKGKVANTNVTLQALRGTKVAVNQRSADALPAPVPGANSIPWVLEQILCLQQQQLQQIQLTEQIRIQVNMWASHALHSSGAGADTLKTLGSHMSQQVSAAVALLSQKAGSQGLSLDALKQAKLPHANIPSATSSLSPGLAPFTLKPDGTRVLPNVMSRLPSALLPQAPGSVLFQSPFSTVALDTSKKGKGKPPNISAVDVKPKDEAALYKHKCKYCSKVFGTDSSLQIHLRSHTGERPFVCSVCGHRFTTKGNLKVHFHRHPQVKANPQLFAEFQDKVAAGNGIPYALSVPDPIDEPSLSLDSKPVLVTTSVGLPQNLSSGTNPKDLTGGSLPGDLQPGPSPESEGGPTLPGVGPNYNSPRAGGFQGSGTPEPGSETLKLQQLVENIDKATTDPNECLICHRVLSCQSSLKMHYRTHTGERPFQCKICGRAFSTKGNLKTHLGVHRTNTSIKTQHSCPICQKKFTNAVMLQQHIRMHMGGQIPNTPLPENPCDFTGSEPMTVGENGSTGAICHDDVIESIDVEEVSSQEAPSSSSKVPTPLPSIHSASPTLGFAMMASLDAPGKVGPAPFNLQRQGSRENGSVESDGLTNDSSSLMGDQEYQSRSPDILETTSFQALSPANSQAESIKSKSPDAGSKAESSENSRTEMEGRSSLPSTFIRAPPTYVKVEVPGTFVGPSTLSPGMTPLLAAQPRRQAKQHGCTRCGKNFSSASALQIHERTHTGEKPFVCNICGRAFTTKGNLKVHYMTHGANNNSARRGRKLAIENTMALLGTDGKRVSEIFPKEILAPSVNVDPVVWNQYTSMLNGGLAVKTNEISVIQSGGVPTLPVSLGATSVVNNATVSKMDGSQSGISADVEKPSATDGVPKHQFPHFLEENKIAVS
Setting: 8-mer, flanks averaged, mean of replicates
The E-score of `TCGAATCA` is reported as -0.0175.
`CCCGTTTA` has an E-score of 0.0617.
`CTCGGCGC` gave an E-score of -0.34.
For `ATTGAGAC`, the E-score was 0.134.
The E-score of `GCAGTTGA` is reported as -0.153.

Block 3 — method: protein-binding microarray; molecule type: double-stranded DNA, one strand shown; medium: in vitro; tested at: 2200 nM top; setting: 60-bp whole probe; added: salmon DNA 0.4 mg/ml; reference: random background probes; direction: higher = stronger binding
Target: Interferon regulatory factor 7, full length, phosphomimetic (IRF7, Homo sapiens, UniProt Q92985, residues 1-503, S471D/S472D/S475D/S476D/S477D/S483D/S484D/S487D)
Target sequence (chain): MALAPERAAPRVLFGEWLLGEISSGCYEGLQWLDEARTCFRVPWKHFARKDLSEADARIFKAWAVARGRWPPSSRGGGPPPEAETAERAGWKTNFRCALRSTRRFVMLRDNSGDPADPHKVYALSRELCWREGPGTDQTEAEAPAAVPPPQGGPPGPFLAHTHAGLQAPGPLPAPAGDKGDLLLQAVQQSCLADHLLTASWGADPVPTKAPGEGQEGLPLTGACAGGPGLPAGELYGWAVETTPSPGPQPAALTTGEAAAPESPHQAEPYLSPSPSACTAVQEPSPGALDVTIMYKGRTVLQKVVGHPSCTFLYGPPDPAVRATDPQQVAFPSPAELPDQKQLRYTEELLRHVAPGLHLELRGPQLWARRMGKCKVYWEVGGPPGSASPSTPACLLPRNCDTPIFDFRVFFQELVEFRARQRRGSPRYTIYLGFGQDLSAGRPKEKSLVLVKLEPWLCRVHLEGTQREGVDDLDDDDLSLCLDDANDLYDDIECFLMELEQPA
Under “fitted relative affinity”, `GCCTAGCACGACGGTATCCTCATCCTGACGTGCTAGGTCTTGATTCGCTTGACGCTGCTG` is recorded as 0.944 z-score.
`GCCTAGCACTATGTTCCCTATTTAAGACCGTGCTAGGTCTTGATTCGCTTGACGCTGCTG`: “fitted relative affinity” 1.68 z-score.
Under “fitted relative affinity”, `GCCTAGCACTTAGGTTTCGACACTGCGTTAGTGCTAGTCTTGATTCGCTTGACGCTGCTG` is recorded as 2.25 z-score.
For `GCCTAGCACGTCGGTTCCGGTTTCGGGACGTGCTAGGTCTTGATTCGCTTGACGCTGCTG`, “fitted relative affinity” read 6.29 z-score.

Other studies, line by line
With `PhoQ, residues 284 288 289 292 302 303 SACGEM` the fold induction was 0.552 (PhoP, residues 12 14 15 18 19 NFCKL (Escherichia coli, UniProt P23836); Sort-seq, item: YFP reporter; E. coli; PhoQ-PhoP variant library, added: 10 µM Mg2+; reference: high Mg2+ state, higher = stronger signaling).
